Measured values gathered from unrelated publications.
Lines come from different studies, so protocols differ. ± marks the error that the study gave.

Structure (SMILES)	cell line	assay	system	conditions	CC50
O=[N+]([O-])c1ccc(-n2nc(-c3ccc(F)cc3)cc2-c2ccc(F)cc2)c([N+](=O)[O-])c1	Neuro2a	MTT		48 h	~75 µM
COc1ccccc1-c1ccc(OCCc2cccc(F)c2)c(C(N)=O)c1	HepG2		galactose medium	3 (unit not given)	28 ± 17 µM
Nc1nc(Nc2ccc(Cl)cc2)nn1S(=O)(=O)c1ccc2ccccc2c1	Vero 76				25 µM
CN(C)S(=O)(=O)c1ccc2c(c1)N(CCCN1CCC(CCO)CC1)c1ccccc1S2	African green monkey cells			5 days	7.33 µM
COc1ccc(-c2cc(-c3ccc(F)cc3)nn2-c2ccc([N+](=O)[O-])cc2[N+](=O)[O-])cc1	Neuro2a	MTT		48 h	~1 µM
NC(=O)c1cc(C(F)F)ccc1OCCc1cccc(F)c1	HepG2			3 (unit not given), human	43 ± 1 µM
O=[N+]([O-])c1ccc(-n2nc(-c3ccc(F)cc3)cc2-c2ccc(Cl)cc2)c([N+](=O)[O-])c1	Neuro2a	MTT		48 h	~1 µM
NC(=O)c1cc(-c2cccnc2)ccc1OCCc1cccc(F)c1	HepG2		galactose medium	3 (unit not given)	49 ± 2 µM
C[C@H](NC(=O)[C@@H](O)c1cc(F)cc(F)c1)C(=O)N[C@@H]1C(=O)N(C)c2ccccc2-c2ccccc21	MEF	cell viability, CellTiter-Glo		48 h, uninfected	70.2 µM
CC(C)CC(NC(=O)OCc1ccccc1)C(=O)NC(CC1CCNC1=O)C(=O)C(=O)NC1CC1 (stereo not shown)	HCT-8			5 (unit not given)	> 250 µM
CC[C@H](C)[C@H]1NC(=O)[C@@H](Cc2ccccc2)N(C)C(=O)[C@H](C)N(C)C(=O)[C@H](CC(C)C)NC(=O)[C@H](Cc2ccccc2)N(C)C(=O)[C@H](C)N(C)C(=O)[C@@H]([C@@H](C)CC)NC1=O	HCT-116	CellTiter-Glo ATP		72 h, 0.1% DMSO	0.034 ± 0.005 µM
COc1ccc(NN2CCCC3(C2)Nc2cccnc2N=C3NC2CCCC2)c(C)c1 (stereo not shown)	African green monkey cells			72 (unit not given)	> 70 µM
CC(C)C[C@@H]1NC(=O)[C@H](Cc2ccccc2)N(C)C(=O)[C@H](C(C)C)NC(=O)[C@@H](C(C)C)NC(=O)[C@@H](C(C)C)NC(=O)[C@@H](Cc2ccccc2)N(C)C(=O)[C@H](C)N(C)C1=O	HCT-116	cell viability, CellTiter-Glo ATP		72 h	> 10 µM
Nc1nc(Nc2ccc(Cl)c(Cl)c2)nn1S(=O)(=O)c1ccc2ccccc2c1	African green monkey cells				3.4 µM
C[C@H](NC(=O)Cc1cc(F)cc(F)c1)C(=O)N[C@@H]1C(=O)N(C)c2ccccc2-c2ccccc21	Raji DC-SIGN	cell viability, CellTiter-Glo		48 h, uninfected	110 µM
CC[C@H](C)[C@H]1NC(=O)[C@@H](C)N(C)C(=O)[C@H](C)N(C)C(=O)[C@H](CC(C)C)NC(=O)[C@H](Cc2ccccc2)N(C)C(=O)[C@H](C)N(C)C(=O)[C@@H]([C@@H](C)CC)NC1=O	HCT-116	CellTiter-Glo ATP		72 h, 0.1% DMSO	0.14 ± 0.013 µM

For quick reference, copied from above:
Structure (SMILES)	cell line	assay	system	conditions	CC50
COc1ccc(-c2cc(-c3ccc(F)cc3)nn2-c2ccc([N+](=O)[O-])cc2[N+](=O)[O-])cc1	Neuro2a	MTT		48 h	~1 µM
NC(=O)c1cc(C(F)F)ccc1OCCc1cccc(F)c1	HepG2			3 (unit not given), human	43 ± 1 µM
CC(C)CC(NC(=O)OCc1ccccc1)C(=O)NC(CC1CCNC1=O)C(=O)C(=O)NC1CC1 (stereo not shown)	HCT-8			5 (unit not given)	> 250 µM
